Published values collected from several papers.
Numbers after ± are the reported error.

N[C@]1(C(=O)O)[C@H]2[C@@H](C[C@@H]1F)[C@@H]2C(=O)O gave a Tmax of 8 h (healthy subjects, both sexes, CSF; oral, 10 mg TS-134 single dose, fed, median).
With Cc1cc(-c2ccn3c(-c4ccc(CC(=O)Nc5cccc(C(F)(F)F)c5)c(F)c4)cnc3c2)ccn1 the Tmax was 0 h (human, plasma; oral, 50 mg multiple doses, added: drug interaction probe cocktail).
CN1CC[C@@H](NC(=O)Nc2ccc(C#N)cc2)C[C@@H]1c1nc2ccccc2[nH]1 gave a Tmax of 2 h (Japanese patients; oral, 100 mg once daily, cycle 1 day 21, median).
For CC(=O)Nc1ccc(O)cc1, the Tmax was 0.74 h (healthy volunteers, both sexes, plasma; oral, 650 mg, day 6, added: favipiravir, extended).
C[C@]12C=CC(=O)C=C1CC[C@@H]1[C@@H]2[C@@H](O)C[C@@]2(C)[C@H]1C[C@H]1O[C@@H](C3CCCCC3)O[C@]12C(=O)CO has a Tmax of 0.73 ± 0.054 h (children with asthma, serum; inhaled, 160 µg ciclesonide, day 7, HFA-MDI without spacer).
CNCc1ccc(-c2[nH]c3cc(F)cc4c3c2CCNC4=O)cc1 gave a Tmax of 3 ± 1.3 h (noncompartmental analysis; patients, plasma; oral, 400 mg, day 21, added: bevacizumab).
CCOc1cc([C@@H](CS(C)(=O)=O)N2C(=O)c3cccc(NC(C)=O)c3C2=O)ccc1O[C@@H]1O[C@H](C(=O)O)[C@@H](O)[C@H](O)[C@H]1O has a Tmax of 5 h (mild renal impairment patients, plasma; oral, 30 mg of apremilast).
The Tmax of COc1cc(OC)c(/C=C/S(=O)(=O)Cc2ccc(OC)c(NCC(=O)O)c2)c(OC)c1 is reported as 0.88 ± 0.25 h (cancer patients, phase I, plasma; oral, 140 mg twice daily, day 21 cycle 1).
For CO/N=C1\C[C@]2(C[C@@H]3C[C@@H](C/C=C(\C)C[C@@H](C)/C=C/C=C4\CO[C@@H]5[C@H](O)C(C)=C[C@@H](C(=O)O3)[C@]45O)O2)O[C@H](/C(C)=C/C(C)C)[C@H]1C, the Tmax was 11.3 ± 3.84 h (HPLC, non-compartmental; Corriedale lambs, parasitized, plasma; subcutaneous, 0.2 mg/kg).
COc1ccc2c3c1O[C@H]1C[C@@H](OC(=O)c4ccccc4)C=C[C@@]31CCN(C)C2 has a Tmax of 0.59 h (healthy elderly men, plasma; intranasal, 33 mg, single dose).
With NC(=O)c1cnc2[nH]ccc2c1N[C@@H]1[C@@H]2CC3C[C@H]1C[C@@](O)(C3)C2 the Tmax was 1 h (healthy Caucasian men, plasma; oral, 60 mg, single dose fasted median).
For CS(=O)(=O)n1cc2c(n1)CN([C@H]1CO[C@H](c3cc(F)ccc3F)[C@@H](N)C1)C2, the Tmax was 0.5 h (healthy Japanese men, plasma; oral, 25 mg once weekly, day 1).
C[C@@H](O)[C@H]1C(=O)N2C(C(=O)O)=C(S[C@@H]3CN[C@H](C(=O)N(C)C)C3)[C@H](C)[C@H]12 has a Tmax of 0.683 h (microdialysis; pig (Danish Landrace), cancellous bone; iv infusion, 1000 mg over 10 min, added: vancomycin co-administered).
CC1=C2C[C@H]3[C@@H](CC[C@@H]4C[C@H](NS(C)(=O)=O)CC[C@@]43C)[C@@H]2CC[C@@]2(C1)O[C@@H]1C[C@H](C)CN[C@H]1[C@H]2C gave a Tmax of 5.08 h (patients, plasma; oral, 210 mg daily, day 22, cycle 1).
CN1C(=O)[C@@H](NC(=O)c2nnc(Cc3ccccc3)[nH]2)COc2ccccc21 has a Tmax of 1.5 h (healthy men, plasma; oral, 20 mg once daily, day 14, median).
CC(C)=CCC[C@](C)(O[C@@H]1O[C@H](CO)[C@@H](O)[C@H](O)[C@H]1O)[C@H]1CC[C@]2(C)[C@@H]1[C@H](O)C[C@@H]1[C@@]3(C)CC[C@H](O[C@@H]4O[C@H](CO)[C@@H](O)[C@H](O)[C@H]4O)C(C)(C)[C@@H]3CC[C@]12C gave a Tmax of 10.8 ± 2.68 h (LC-MS/MS; healthy female volunteers, serum; oral, 3 g fermented red ginseng).
With C[C@@H](N)c1cc(Cl)ccc1Cn1c(=S)[nH]c(=O)c2[nH]ccc21 the Tmax was 1.02 h (healthy Chinese volunteers, plasma; oral, 5 mg once daily, day 10, median).
The Tmax of CS(=O)(=O)c1ccc([C@@H](O)[C@@H](CF)NC(=O)C(Cl)Cl)cc1 is reported as 0.79 ± 0.1 h (chicken, HY-Line Brown hens, plasma; oral, 20 mg/kg).
CCOc1ccc(Cc2cc([C@@H]3S[C@H](CO)[C@@H](O)[C@H](O)[C@H]3O)c(OC)cc2C)cc1 has a Tmax of 0.5 h (Japanese type 2 diabetes patients, plasma; oral, 5 mg single dose, eGFR 45-59 mL/min/1.73 m^2, median).
CC[C@H](C)[C@@H]1NC(=O)[C@H](CCCNC(=N)N)NC(=O)[C@H](CC(=O)O)NC(=O)[C@H](CC(C)C)NC(=O)[C@H](CCCCN)NC(=O)[C@H](CC(C)C)NC(=O)CNC(=O)[C@H](Cc2ccccc2)NC(=O)[C@@H](NC(=O)CNC(=O)[C@H](CCCCN)NC(=O)[C@H](CO)NC(=O)[C@H](CC(C)C)NC(=O)CNC(=O)[C@H](CCCCN)NC(=O)[C@H](CCCCN)NC(=O)[C@H](CC(N)=O)NC(=O)[C@H](C)NC(=O)CNC(=O)[C@H](CCCCN)NC(=O)[C@H](Cc2ccc(O)cc2)NC(=O)[C@H](CCCCN)NC(=O)[C@H](CCCNC(=N)N)NC(=O)[C@H](C)NC(=O)[C@H](CC(N)=O)NC(=O)[C@@H]2CCCN2C(=O)[C@H](Cc2c[nH]cn2)NC(=O)[C@H](CCC(=O)O)NC(=O)[C@H](CCC(N)=O)NC(=O)CNC(=O)[C@@H]2CCCN2)CSSC[C@@H](C(=O)O)NC(=O)CNC(=O)[C@H](CC(C)C)NC(=O)CNC(=O)[C@H](CO)NC(=O)[C@H](CCSC)NC(=O)[C@H](CO)NC(=O)CNC1=O has a Tmax of 0.23 h (ECLA; achondroplasia patients aged 5-18 years, plasma; subcutaneous, 15 µg/kg once daily, day 1).
For CCCN1CC(c2ccc(S(C)(=O)=O)cc2)=C(c2ccc(C)cc2)C1=O, the Tmax was 2 h (healthy Chinese, elderly, plasma; oral, 100 mg, fasting).
With Cc1ccc(NC(=O)c2ccc(CN3CCN(C)CC3)cc2)cc1Nc1nccc(-c2cncc(-c3oncc3C)c2)n1 the Tmax was 4.41 h (Parkinson's disease patients, plasma; oral, 100 mg once daily, day 7, 7-day dosing, mean).
For Cc1ccc(Sc2ccccc2N2CCNCC2)c(C)c1, the Tmax was 9 h (healthy men, plasma; oral, 20 mg once daily, fed, day 1).
The Tmax of CC(C)=CCC[C@](C)(O[C@@H]1O[C@H](CO)[C@@H](O)[C@H](O)[C@H]1O)[C@H]1CC[C@]2(C)[C@@H]1[C@H](O)C[C@@H]1[C@@]3(C)CC[C@H](O[C@@H]4O[C@H](CO)[C@@H](O)[C@H](O)[C@H]4O[C@@H]4O[C@H](CO)[C@@H](O)[C@H](O)[C@H]4O)C(C)(C)[C@@H]3CC[C@]12C is reported as 9.92 ± 3.33 h (LC-MS/MS; healthy male volunteers, serum; oral, 3 g fermented red ginseng).
With O=C1CCc2ccc(OCCCCN3CCN(c4cccc(Cl)c4Cl)CC3)cc2N1 the Tmax was 2.7 ± 1.4 h (healthy Japanese men, CYP2D6 EM, plasma; oral, 3 mg aripiprazole single).
CO[C@H]1C[C@@H]2CC[C@@H](C)[C@@](O)(O2)C(=O)C(=O)N2CCCC[C@H]2C(=O)O[C@H]([C@H](C)C[C@@H]2CC[C@@H](OP(C)(C)=O)[C@H](OC)C2)CC(=O)[C@H](C)/C=C(\C)[C@@H](O)[C@@H](OC)C(=O)[C@H](C)C[C@H](C)/C=C/C=C/C=C/1C has a Tmax of 4 h (HPLC-MS/MS; Japanese patients, whole blood; oral, 20 mg, day 26, cycle 1, median).
Cc1nc(-c2ccc(OCC(C)C)c(C#N)c2)sc1C(=O)O has a Tmax of 1.5 h (healthy men, plasma; oral, 80 mg once daily, day 14, median, added: verinurad 2.5 mg).
CCCOc1ccc([C@H]2CNC(=O)N2c2ccc3[nH]cnc3c2)cc1 has a Tmax of 0.5 h (non-elderly adults, fasted, plasma; oral, 200 mg twice daily, day 11, oral solution, median).
For CN[C@H](CC(C)C)C(=O)N[C@H]1C(=O)N[C@@H](CC(N)=O)C(=O)N[C@H]2C(=O)N[C@H]3C(=O)N[C@H](C(=O)N[C@H](C(=O)O)c4cc(O)cc(O)c4-c4cc3ccc4O)[C@H](O)c3ccc(c(Cl)c3)Oc3cc2cc(c3O[C@@H]2O[C@H](CO)[C@@H](O)[C@H](O)[C@H]2O[C@H]2C[C@](C)(N)[C@H](O)[C@H](C)O2)Oc2ccc(cc2Cl)[C@H]1O, the Tmax was 2.88 h (microdialysis; pig (Danish Landrace), subcutaneous adipose tissue; iv infusion, 1000 mg over 100 min, added: meropenem co-administered).
Nc1ncc(-c2cnn(CCO)c2)c2scc(-c3ccc(NC(=O)Nc4cccc(F)c4)cc3)c12 gave a Tmax of 22.7 ± 7.2 h (patients, plasma; oral, 320 mg twice weekly, day 1).
For NS(=O)(=O)c1cc(Cl)c(Cl)c(S(N)(=O)=O)c1, the Tmax was 2 h (healthy volunteers, plasma; oral, 200 mg, single dose, median).
COc1cc2c(cc1OC)CN(CCc1ccc(NC(=O)c3cc(OC)c(OC)cc3NC(=O)c3cnc4ccccc4c3)cc1)CC2 has a Tmax of 1.29 h (human, plasma; intravenous infusion, 4 mg/kg).
With CC(C)(Sc1ccncc1-c1ccc(C#N)c2ccccc12)C(=O)O the Tmax was 3 h (male, plasma; oral, 15 mg, moderate renal impairment, fasted).
NC(=O)c1cnc2[nH]ccc2c1N[C@@H]1[C@@H]2CC3C[C@H]1C[C@@](O)(C3)C2 has a Tmax of 1.47 h (Japanese, mild hepatic impairment, plasma; oral, 150 mg single dose, median).
